# Published values pooled from the literature.
# Lines come from different studies, so protocols differ. Values joined by “and” are separate records of one study, mostly repeats; a detail may differ. ± gives the spread as reported.
# MCOLN3: Mucolipin-3 (MCOLN3, Homo sapiens, UniProt Q8TDD5)
# Sequence of UniProt Q8TDD5 (whole entry, looked up): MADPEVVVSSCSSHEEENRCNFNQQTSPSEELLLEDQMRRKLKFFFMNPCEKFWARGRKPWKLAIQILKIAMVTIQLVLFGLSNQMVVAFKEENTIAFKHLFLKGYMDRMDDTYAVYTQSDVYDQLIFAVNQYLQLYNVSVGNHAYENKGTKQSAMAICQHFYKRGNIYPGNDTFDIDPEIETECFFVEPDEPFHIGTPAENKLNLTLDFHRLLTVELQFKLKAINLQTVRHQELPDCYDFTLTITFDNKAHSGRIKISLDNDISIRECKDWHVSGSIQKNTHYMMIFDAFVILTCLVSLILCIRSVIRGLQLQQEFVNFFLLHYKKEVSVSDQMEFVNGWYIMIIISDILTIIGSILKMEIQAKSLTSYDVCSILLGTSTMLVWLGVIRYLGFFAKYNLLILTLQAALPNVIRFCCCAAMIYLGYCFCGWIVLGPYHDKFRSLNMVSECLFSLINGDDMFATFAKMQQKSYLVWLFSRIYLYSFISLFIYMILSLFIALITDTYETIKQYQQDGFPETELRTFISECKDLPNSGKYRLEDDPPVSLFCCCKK
# Vcp: Transitional endoplasmic reticulum ATPase (Vcp, Mus musculus, UniProt Q01853)
# Sequence of UniProt Q01853 (whole entry, looked up): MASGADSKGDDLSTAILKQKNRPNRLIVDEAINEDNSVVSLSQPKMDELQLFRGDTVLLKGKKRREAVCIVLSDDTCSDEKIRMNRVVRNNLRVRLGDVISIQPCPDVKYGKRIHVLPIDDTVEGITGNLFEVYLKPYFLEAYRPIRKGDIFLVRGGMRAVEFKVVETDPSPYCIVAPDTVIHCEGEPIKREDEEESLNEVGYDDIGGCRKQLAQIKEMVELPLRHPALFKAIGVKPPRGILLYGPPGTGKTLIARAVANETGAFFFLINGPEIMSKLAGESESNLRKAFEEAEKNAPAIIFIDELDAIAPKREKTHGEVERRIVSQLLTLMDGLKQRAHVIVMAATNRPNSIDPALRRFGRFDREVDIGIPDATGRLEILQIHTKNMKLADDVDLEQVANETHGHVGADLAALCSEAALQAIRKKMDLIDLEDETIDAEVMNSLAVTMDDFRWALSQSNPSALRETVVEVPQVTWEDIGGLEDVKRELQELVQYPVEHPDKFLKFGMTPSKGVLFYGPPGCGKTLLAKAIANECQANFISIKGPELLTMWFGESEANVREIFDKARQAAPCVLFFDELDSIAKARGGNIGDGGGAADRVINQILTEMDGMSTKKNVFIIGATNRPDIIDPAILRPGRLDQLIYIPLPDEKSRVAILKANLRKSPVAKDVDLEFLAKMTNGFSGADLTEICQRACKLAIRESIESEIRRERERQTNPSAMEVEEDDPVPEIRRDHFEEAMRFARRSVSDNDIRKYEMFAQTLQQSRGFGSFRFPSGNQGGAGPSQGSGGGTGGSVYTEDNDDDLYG
# TRPV1: Transient receptor potential cation channel subfamily V member 1 (TRPV1, Homo sapiens, UniProt Q8NER1)
# Sequence of UniProt Q8NER1 (whole entry, looked up): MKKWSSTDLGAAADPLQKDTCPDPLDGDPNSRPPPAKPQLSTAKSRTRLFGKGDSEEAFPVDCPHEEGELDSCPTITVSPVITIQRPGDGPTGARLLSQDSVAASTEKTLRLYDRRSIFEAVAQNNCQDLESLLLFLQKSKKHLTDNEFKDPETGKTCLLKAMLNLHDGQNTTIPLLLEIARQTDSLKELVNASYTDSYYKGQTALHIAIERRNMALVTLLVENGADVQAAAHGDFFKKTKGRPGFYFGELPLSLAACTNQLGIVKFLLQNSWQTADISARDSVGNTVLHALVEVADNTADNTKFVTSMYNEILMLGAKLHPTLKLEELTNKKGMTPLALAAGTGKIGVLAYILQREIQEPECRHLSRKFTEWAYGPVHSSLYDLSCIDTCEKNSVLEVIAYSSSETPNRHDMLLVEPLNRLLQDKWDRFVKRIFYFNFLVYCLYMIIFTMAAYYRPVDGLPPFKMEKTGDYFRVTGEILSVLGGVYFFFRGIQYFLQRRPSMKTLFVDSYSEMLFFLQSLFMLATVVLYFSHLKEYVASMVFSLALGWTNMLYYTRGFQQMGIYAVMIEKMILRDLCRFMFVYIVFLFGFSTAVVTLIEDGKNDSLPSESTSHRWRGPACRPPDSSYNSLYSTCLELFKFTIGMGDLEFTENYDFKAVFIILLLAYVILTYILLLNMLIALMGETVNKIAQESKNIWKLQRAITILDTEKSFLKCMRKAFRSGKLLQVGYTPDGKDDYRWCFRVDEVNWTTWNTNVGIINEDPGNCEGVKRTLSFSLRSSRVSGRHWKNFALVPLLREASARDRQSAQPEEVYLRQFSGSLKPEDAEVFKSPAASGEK
# FPR1: fMet-Leu-Phe receptor (FPR1, Homo sapiens, UniProt P21462)
# Sequence of UniProt P21462 (whole entry, looked up): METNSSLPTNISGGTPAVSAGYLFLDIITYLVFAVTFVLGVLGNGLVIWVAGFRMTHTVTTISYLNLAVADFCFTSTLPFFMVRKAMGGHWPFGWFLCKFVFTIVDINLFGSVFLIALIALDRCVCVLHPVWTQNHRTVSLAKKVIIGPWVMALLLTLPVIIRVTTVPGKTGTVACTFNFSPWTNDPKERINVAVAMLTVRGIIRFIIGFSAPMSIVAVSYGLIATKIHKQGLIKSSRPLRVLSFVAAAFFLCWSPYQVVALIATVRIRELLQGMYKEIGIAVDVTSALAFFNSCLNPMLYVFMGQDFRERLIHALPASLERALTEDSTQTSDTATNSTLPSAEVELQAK
# Sequence of UniProt Q9GZU1 (whole entry, unmodified, looked up): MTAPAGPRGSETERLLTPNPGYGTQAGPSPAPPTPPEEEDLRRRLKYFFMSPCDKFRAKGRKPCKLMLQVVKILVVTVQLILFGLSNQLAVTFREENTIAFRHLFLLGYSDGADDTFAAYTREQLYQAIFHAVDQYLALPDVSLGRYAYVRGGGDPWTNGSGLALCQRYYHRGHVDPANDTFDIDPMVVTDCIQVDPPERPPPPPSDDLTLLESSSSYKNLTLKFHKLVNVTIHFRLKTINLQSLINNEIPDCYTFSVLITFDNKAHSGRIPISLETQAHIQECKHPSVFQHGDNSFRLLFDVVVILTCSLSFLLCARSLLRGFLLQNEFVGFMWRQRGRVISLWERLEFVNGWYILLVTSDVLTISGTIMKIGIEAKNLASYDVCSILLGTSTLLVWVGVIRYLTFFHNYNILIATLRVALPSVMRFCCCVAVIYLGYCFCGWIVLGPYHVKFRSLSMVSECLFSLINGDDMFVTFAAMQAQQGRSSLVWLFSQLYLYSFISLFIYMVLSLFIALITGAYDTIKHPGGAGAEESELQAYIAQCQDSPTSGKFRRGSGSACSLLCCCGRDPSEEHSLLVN
# Sequence of UniProt P15144 (whole entry, looked up): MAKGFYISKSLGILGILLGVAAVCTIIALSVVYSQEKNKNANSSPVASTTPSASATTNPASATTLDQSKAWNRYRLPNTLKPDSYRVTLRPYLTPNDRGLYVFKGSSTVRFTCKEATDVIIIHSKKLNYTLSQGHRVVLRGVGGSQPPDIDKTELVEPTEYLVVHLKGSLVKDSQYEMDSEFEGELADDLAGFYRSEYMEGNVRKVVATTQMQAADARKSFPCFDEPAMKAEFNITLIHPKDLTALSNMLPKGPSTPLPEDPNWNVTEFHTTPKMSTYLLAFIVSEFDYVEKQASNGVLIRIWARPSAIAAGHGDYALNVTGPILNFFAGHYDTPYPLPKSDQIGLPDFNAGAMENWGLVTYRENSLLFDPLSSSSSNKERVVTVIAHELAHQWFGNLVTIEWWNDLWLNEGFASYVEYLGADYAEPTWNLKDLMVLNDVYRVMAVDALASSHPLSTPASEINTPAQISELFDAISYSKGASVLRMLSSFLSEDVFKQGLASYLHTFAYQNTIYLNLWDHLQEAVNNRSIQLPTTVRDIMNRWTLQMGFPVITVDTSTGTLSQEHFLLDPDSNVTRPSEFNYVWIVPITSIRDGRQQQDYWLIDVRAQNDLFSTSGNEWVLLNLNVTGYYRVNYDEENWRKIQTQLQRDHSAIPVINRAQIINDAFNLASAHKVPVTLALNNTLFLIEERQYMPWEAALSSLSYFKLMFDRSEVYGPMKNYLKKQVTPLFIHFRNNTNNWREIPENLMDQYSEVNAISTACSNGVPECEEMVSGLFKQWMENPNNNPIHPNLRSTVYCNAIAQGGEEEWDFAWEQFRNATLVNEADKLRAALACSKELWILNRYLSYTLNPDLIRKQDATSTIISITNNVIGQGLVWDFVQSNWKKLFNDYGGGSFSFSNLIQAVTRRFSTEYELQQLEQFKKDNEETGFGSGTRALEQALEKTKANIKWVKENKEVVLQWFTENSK
# Sequence of UniProt Q16281 (whole entry, looked up): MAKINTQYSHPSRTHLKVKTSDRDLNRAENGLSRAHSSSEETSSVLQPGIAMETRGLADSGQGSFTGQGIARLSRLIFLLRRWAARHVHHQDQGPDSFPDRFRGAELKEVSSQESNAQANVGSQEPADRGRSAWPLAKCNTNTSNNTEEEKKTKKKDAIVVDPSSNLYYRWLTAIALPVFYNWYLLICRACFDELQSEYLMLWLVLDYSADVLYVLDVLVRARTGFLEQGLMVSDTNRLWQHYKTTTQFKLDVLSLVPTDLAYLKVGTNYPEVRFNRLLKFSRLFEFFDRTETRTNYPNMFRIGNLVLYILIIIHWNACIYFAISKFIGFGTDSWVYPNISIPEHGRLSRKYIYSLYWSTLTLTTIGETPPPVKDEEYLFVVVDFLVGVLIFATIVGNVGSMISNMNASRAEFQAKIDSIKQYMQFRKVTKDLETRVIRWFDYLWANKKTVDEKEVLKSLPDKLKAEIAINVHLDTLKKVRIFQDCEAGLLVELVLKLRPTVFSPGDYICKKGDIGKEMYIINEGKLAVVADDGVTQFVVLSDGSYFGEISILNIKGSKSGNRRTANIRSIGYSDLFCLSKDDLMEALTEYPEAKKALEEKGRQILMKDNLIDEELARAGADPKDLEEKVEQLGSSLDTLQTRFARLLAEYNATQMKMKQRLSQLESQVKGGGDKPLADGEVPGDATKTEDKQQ
Molecule,target,test,test system,conditions,how to read,EC50
O=C(/C=C/C=C/c1ccc2c(c1)OCO2)N1CCCCC1,"Nuclear receptor subfamily 1 group I member 2 (NR1I2, Homo sapiens, UniProt O75469)","CYP3A4 promoter reporter, agonist","LS174T transfected with CYP3A4-luc, no PXR",24 h,,670 nM
O=S(=O)(Nc1ccccc1N1CCCCC1)c1ccc(Cl)s1,MCOLN3,"calcium flux, agonist, Fluo-8 calcium",HEK293 expressing TRPML3,,,660 nM and < 1000 nM
O=C(CSc1nc2ccccc2c(=O)n1NC(=O)c1ccccc1)c1ccc(Cl)cc1,Vcp,"ATPase activity, activator, Kinase-Glo",,"Vcp 50 nM, together with: ATP 62.5 µM",,1570 nM
CC1=CC(C)(C)N(C(=O)CN2C(=O)c3ccccc3C2=O)c2ccccc21,MCOLN3,"calcium flux, agonist, Fluo-8 calcium",HEK293 expressing TRPML3,,,930 ± 200 nM
Nc1nc2c(ncn2[C@@H]2O[C@@H]3COP(=O)(O)O[C@H]3[C@H]2O)c(=O)[nH]1,"Cnga2 (Mus musculus, UniProt Q62398, M2V)","channel current, agonist, inside-out patch clamp",Xenopus oocytes,holding +100 mV,,1200 nM
CC[S+]([O-])c1nc(-c2cccc(OCc3ccccc3)c2)cc(C(F)(F)F)n1 (stereo not drawn),"Glucagon-like peptide 1 receptor (GLP1R, Homo sapiens, UniProt P43220)",agonist,human cells,,,~500 nM
CC1CCN(c2nc(C(F)(F)F)ccc2CNC(=O)Nc2ccc(NS(C)(=O)=O)c(F)c2)CC1,TRPV1,"45Ca2+ uptake, agonist",CHO expressing human TRPV1,,relative to: capsaicin 1 µM maximal response,> 3000 nM
CC1=NN(CC(=O)Nc2ccc(Br)cc2)C(=O)CC1C (racemic),"fMet-Leu-Phe receptor (Mus musculus, UniProt P33766)","calcium signal, agonist",,,,25100 nM
O=C(O)CCc1ccc(NCc2cccc(Oc3ccccc3)c2)cc1,"Free fatty acid receptor 1 (FFAR1, Homo sapiens, UniProt O14842)","agonist, dynamic mass redistribution",CHO cells expressing FFA1,5 min,,400 ± 30 nM
Nc1nc2c(ncn2[C@@H]2O[C@@H]3COP(=O)(O)O[C@H]3[C@H]2O)c(=O)[nH]1,"CNGA3 (Homo sapiens, UniProt Q16281)","channel activation, agonist, inside-out patch clamp",Xenopus oocytes,"60 min, control patches without MMP9",,12600 nM
CCOc1ccc(S(=O)(=O)N2CCCCCC2)c2ccccc12,MCOLN3,"calcium flux, agonist, Fluo-8 calcium",HEK293 expressing TRPML3,,,< 1000 nM and 990 nM
c1ccc(C(CCNC2CCNCC2)c2ccccc2)cc1,"Son of sevenless homolog 1, catalytic domain (SOS1, Homo sapiens, UniProt Q07889)","nucleotide exchange, activator",,together with: BODIPY-GDP-loaded RAS,,8700 nM
CC1CCN(c2nc(C(F)(F)F)ccc2CNC(=O)N(C)c2ccc(NS(C)(=O)=O)c(F)c2)CC1,TRPV1,"45Ca2+ uptake, agonist",CHO expressing human TRPV1,,relative to: capsaicin 1 µM maximal response,> 3000 nM
CCC[C@H](C(=O)Nc1ccc(Br)cc1)n1nc(C)cc(Cc2cccc(OC)c2)c1=O,FPR1,"β-arrestin recruitment, agonist",,,,3800 nM
Cc1ccc(C(C)C)cc1O,"Transient receptor potential cation channel subfamily V member 3 (TRPV3, Homo sapiens, UniProt Q8NET8)","ion current, activator, whole-cell patch clamp",HEK293 transfected with TRPV3,range over 0.01 to 3.0 mM,,215000 ± 47900 nM
COCCNC(=O)NC(=O)COC(=O)c1cc([N+](=O)[O-])ccc1Sc1nc(C)cs1,Vcp,"ATPase activity, activator, Kinase-Glo",,"Vcp 50 nM, together with: ATP 62.5 µM",,24700 nM
CC1CC(C)(C)N(C(=O)CN2C(=O)c3ccccc3C2=O)c2ccccc21 (stereo not drawn),"Mucolipin-1 (MCOLN1, Homo sapiens, UniProt Q9GZU1, L15A/L16A)","ion current, agonist, whole-cell patch clamp",HEK293 tetracycline-inducible,"pH 4.6, raised competitor concentration",,~20000 nM
O=c1ccn([C@@]23C[C@H]2[C@@H]2COP(=O)(O)OP(=O)(O)O[C@H]2[C@H]3O)c(=O)[nH]1,"P2Y purinoceptor 6 (P2RY6, Homo sapiens, UniProt Q15077)","PLC activation, measured: inositol phosphates",1321-N1 expressing target,,,> 10000 nM
CC1CCN(c2nc(C(F)(F)F)ccc2CNC(=O)Nc2ccc(CNS(C)(=O)=O)c(F)c2)CC1,TRPV1,"45Ca2+ uptake, agonist",CHO expressing human TRPV1,,relative to: capsaicin 1 µM maximal response,> 3000 nM
CCC(C(=O)Nc1ccc(Br)cc1)n1nc(C)cc(Cc2cccc(OC)c2)c1=O (racemic),FPR1,"calcium mobilization, agonist",HL-60 transfected with FPR1,,,1300 nM
Cc1ccccc1S(=O)(=O)c1c(C)cc(C)n(C(C)C)c1=O,MCOLN3,"calcium flux, agonist, Fluo-8 calcium",HEK293 expressing TRPML3,,,2290 ± 190 nM
JAK inhibitor I,"Serine/threonine-protein kinase/endoribonuclease IRE1 (Mus musculus, UniProt Q9EQY0, N772Y)","RNase activity, activator, gel-based RNA cleavage",,,,190 nM
CC(C)(C)c1ccc(-c2nc3n(c(=O)c2C#N)CCCS3)cn1,"Ionotropic glutamate receptor NMDA 1/2D (Rattus norvegicus, UniProt P35439+Q62645)","ion current, agonist, two-electrode voltage clamp",,oocytes,,5700 nM
Cc1ccc(S(=O)(=O)Nc2ccccc2-c2ccccc2)cc1,MCOLN3,"calcium flux, agonist, Fluo-8 calcium",HEK293 expressing TRPML3,,,2410 ± 870 nM
CC(C)C[C@H](NC(=O)[C@@H](O)[C@H](N)Cc1ccccc1)C(=O)N1CCC[C@H]1C(=O)N1CCC[C@H]1C(=O)NCCCC[C@H](NC(=O)CN(C)C)C(=O)N[C@@H](CS)C(N)=O,"Aminopeptidase N (ANPEP, Homo sapiens, UniProt P15144)","enzyme activity, inhibitor",HT-1080,"30 min, together with: Ala-pNA 2 mM",,39600 nM
Cc1ccc(N2CCN(S(=O)(=O)N3CCCCC3)CC2)c(C)c1,MCOLN3,"calcium flux, agonist, Fluo-8 calcium",HEK293 expressing TRPML3,,,2110 ± 690 nM
O=S(=O)(Oc1cccc2ccccc12)C1CC2OC1C(c1ccc(O)cc1)=C2c1ccc(O)cc1 (stereo not drawn),"Estrogen receptor (ESR1, Homo sapiens, UniProt P03372)","reporter gene, agonist, luciferase",,,,46 nM
